Measurements collected from several papers.
Numbers after ± are the reported error.
Organism: Plasmodium falciparum

The EC50 of `CCc1nc2nc(C)cc(Nc3cc(C)cc(C)c3)n2n1` is reported as 3.35 ± 2 µM (parasite growth).
`Cc1ccc(N(c2ccc(NC(=O)CN(C)c3ccccc3N3CCCC3=O)cn2)C(C)C)cc1F` has an EC50 of 0.009 µM (parasite growth, LDH; 3D7 population A; 72 h).
For `CC[C@H](C)[C@H](NC(=O)[C@H]([C@@H](C)CC)N(C)C(C)=O)C(=O)N[C@H](C(=O)N[C@@H](CC(C)C)C(=O)[C@@]1(C)CO1)[C@@H](C)O`, the EC50 was 0.013 ± 0.0021 µM (Dd2 β3 R190S resistant).
For `COc1ccccc1N1CCN(c2cccc(F)c2C#N)CC1`, the EC50 was greater than 12.5 µM (parasite growth, SYBR Green; 3D7 DHODH E182D; 72 h).
With `CC(C)N(c1ccc(Cl)c(F)c1)c1ccc(NC(=O)CN(C)c2ccccc2N2CCCC2=O)cn1` the EC50 was 0.017 µM (parasite growth, LDH; 3D7 population E, L562R mutant; 72 h).
For `CC(C)C[C@H](NC(=O)[C@H](Cc1c[nH]c2ccccc12)NC(=O)CN1CCOCC1)C(=O)N[C@H](/C=C/S(C)(=O)=O)Cc1c[nH]c2ccccc12`, the EC50 was 0.022 ± 0.0084 µM (SYBR Green; Dd2; 72 h).
For `CCn1cc(-c2nc(C)no2)c(=O)c2cc(F)c(N3CCC(C)CC3)cc21`, the EC50 was 0.008 µM (parasite growth, [3H]hypoxanthine incorporation; 7G8; 72 h).
`Cc1nnc(-c2ccc3ccn(CC(=O)Nc4ccccc4Cl)c3c2)o1` has an EC50 of 0.381 µM (parasite viability, SYBR Green flow cytometry; Cam3.1 multidrug-resistant; 48 h).
For `Cc1ccc(N(C)c2ccc(NC(=O)CN(C)c3ccccc3N3CCCC3=O)cc2)cc1`, the EC50 was 0.167 µM (parasite growth, LDH; 3D7 population D, CSC1 L954F; 72 h).
For `c1csc(-c2nnc3sc(Cc4ccc5c(c4)CCCC5)nn23)c1`, the EC50 was greater than 12.5 µM (parasite growth; 3D7-E182D; 72 h).
The EC50 of `Cc1cc(NC2Cc3cc(F)c(F)cc3C2)n2nc(C(C)(F)F)nc2n1` is reported as 0.036 µM (parasite growth; TM90C2B multidrug-resistant).
For `CCc1cc2c(cc1CC)CC(NC[C@@H](O)c1ccc(O)c3[nH]c(=O)ccc13)C2`, the EC50 was 0.587 ± 0.11 µM (parasite growth, SYBR Green; 3D7 DHODH E182D; 72 h).
`CCOCC(=O)N1CCC[C@H](C(=O)NCc2nc(-c3ccc(C#N)cc3)cs2)C1` has an EC50 of 0.083 ± 0.032 µM (Dd2 β5 S28L resistant).

Some of these lines once more:
For `CC(C)C[C@H](NC(=O)[C@H](Cc1c[nH]c2ccccc12)NC(=O)CN1CCOCC1)C(=O)N[C@H](/C=C/S(C)(=O)=O)Cc1c[nH]c2ccccc12`, the EC50 was 0.022 ± 0.0084 µM (SYBR Green; Dd2; 72 h).
